Assay results from different studies.
Every numbered part comes from another study and shows a few of its results, in no order. Positions count from the first letter of the parent shown.

Study 1
Target: Prothrombin, mature alpha-thrombin (F2, Homo sapiens, UniProt P00734)
Technique: aptamer microarray, sandwich
Molecule type: DNA with 2'F-ANA
Sample: in vitro
Tested at: 200 nM
Setting: whole 15-mer aptamer, many near background
Added: Cy3 exosite-II aptamer, 400 nM
Direction: higher = stronger binding
Sequence: GGTTGGTGTGGTTGG
Modification	mean fluorescence intensity
2'F-ANA at 2 5 6 7 9 10 11	47.3 a.u.
2'F-ANA at 2 3 4 5 8 9 10 13	51.9 a.u.
2'F-ANA at 2 6 7 9 10 15	106 a.u.
2'F-ANA at 2 7 8 9 10 13 14 15	87.7 a.u.
2'F-ANA at 2 4 5 7 9 10 11 12 14 15	45 a.u.
2'F-ANA at 1 12 14	72 a.u.
2'F-ANA at 4 5 6 7 8 9 11 13	55.1 a.u.
2'F-ANA at 1 5 8 9 10 15	44.1 a.u.
2'F-ANA at 1 2 3 4 5 7 8 9 11 12 14 15	50.7 a.u.
2'F-ANA at 1 4 5 6 7 9 11 15	56.2 a.u.
2'F-ANA at 1 2 4 5 6 11 12	80.5 a.u.
2'F-ANA at 5 6 10 11 12 15	48.2 a.u.
2'F-ANA at 2 3 4 7 9 10 11 13	229 a.u.
2'F-ANA at 2 3 5 8 10 11 12 13	55.5 a.u.
2'F-ANA at 1 2 3 4 6 7 8 9 15	183 a.u.
2'F-ANA at 1 3 4 7 8 11 15	236 a.u.

Study 2
Target: Ras GTPase-activating protein-binding protein 1, RRM domain (G3BP1, Homo sapiens, UniProt Q13283)
Chain of UniProt Q13283 (whole entry, looked up): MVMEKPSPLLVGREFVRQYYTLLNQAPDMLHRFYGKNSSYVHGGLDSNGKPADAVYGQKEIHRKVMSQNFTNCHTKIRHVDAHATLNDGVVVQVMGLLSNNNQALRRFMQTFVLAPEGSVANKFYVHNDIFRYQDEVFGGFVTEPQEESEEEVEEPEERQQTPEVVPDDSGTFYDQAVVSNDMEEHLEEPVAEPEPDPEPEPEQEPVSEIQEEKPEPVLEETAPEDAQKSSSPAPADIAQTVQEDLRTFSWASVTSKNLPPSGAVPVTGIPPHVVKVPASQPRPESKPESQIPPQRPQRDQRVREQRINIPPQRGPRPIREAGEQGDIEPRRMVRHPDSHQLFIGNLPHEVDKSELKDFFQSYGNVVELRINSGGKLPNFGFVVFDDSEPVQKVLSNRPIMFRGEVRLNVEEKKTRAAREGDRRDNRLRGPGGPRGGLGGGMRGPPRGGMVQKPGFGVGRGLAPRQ
Technique: RNA Bind-n-Seq
Molecule type: RNA
Sample: in vitro
Tested at: 1 µM
Setting: whole 134-nt RNA, ends assumed
Added: 150 mM KCl
Reference: input library
Direction: higher = stronger binding
Constant ends, left off below: GGGAGUUCUACAGUCCGACGAUC … UGGAAUUCUCGGGUGUCAAGG
Sequence	log2 enrichment
CACAGACAACACGCACCCACACAGAAACAGAGGGAAGGGGUUGGGAUGGGGACAGGGUGCACAGCAGGGCGGGGUAGGACCCCAGCCCCU	-0.181
CAAGUCCUGUGCUACACAUCGUAUGUACCGAAUCGGGAAAAGGAAAAGGAAAAGGAAAGUAUUAUGUUACGCCGUUCGGAUCUGCACUUC	-0.13
UGGAGAAGCGCUACCUGGCUGCUCAGCGUGAGGCAACAUCCAUCCAUGACCUCAAUGACAAGCUGGAGAAUGAGCUGGCCAACAAGGAGU	-0.269
AAGUCCUGUGCUACACAUCGUAUGUACCGAAUCGGAAAAAGGUUUUUGGAAAAAGGAAAGUAUUAUGUUACGCCGUUCGGAUCUGCACUU	-0.239
UGGCCCUGGUGGCAUGCGGGGAGGAAGAGAUGGCCUCAUGGAUCGUGGUGGUCCCGGUGGAAUGUUCAGAGGUGGCCGUGGUGGAGACAG	0.686
ACCAUGCAGGUGGGCAUCUUUGGGAAGUGGGGCAAAAGGGGGAUAGGGAGGGGGGUAACACUUUGGGAACAGGUGGUCCCAGGUCGUUUC	-0.411
AAGUCCUGUGCUACACAUCGUAUGUACCGAAUCGGGGUUUGGGUUUGGGGUUUGGGAAAGUAUUAUGUUACGCCGUUCGGAUCUGCACUU	0.459
UUGUCUACAGAACUAGACAGUACGGAUGGUGCCAAAGUUUUUAGUAAACAACCAGGAAGAAUCCAAAGAGUAGCAAGAGGAUCGGGUGUA	-0.351
UGGGAGGUGGAUUUUGUUUAUUUUUUUAGCUCAUUUCCAGGGGUGGGAAUUUUUUUUUAAUAUGUGUCAUGAAUGAAGUUGUUUUUGAAA	1.48
AAGUCCUGUGCUACACAUCGUAUGUACCGAAUCGGGAAAGGGUUUUUGGGAAAGGGAAAGUAUUAUGUUACGCCGUUCGGAUCUGCACUU	0.59
CUGUGCUACACAUCGUAUGUACCGAAUCGGGCCCCCCCGGGGCCCCCCCGGGCCCCCCCGGGAAAGUAUUAUGUUACGCCGUUCGGAUCU	-0.573
UCCUGUGCUACACAUCGUAUGUACCGAAUCAAACCCCCAAACCCCCAAAUUUUUUUAAAAAAGUAUUAUGUUACGCCGUUCGGAUCUGCA	-0.266
UCCUGUGCUACACAUCGUAUGUACCGAAUCGGGGUUUUUGGGGUUUUUGGUUUUUGGGGAAAGUAUUAUGUUACGCCGUUCGGAUCUGCA	-0.169
UCCUGUGCUACACAUCGUAUGUACCGAAUCGGAAAAAAGGGAAAAAAGGGGAAAAAAGGAAAGUAUUAUGUUACGCCGUUCGGAUCUGCA	-0.0764

Study 3
Target: Sal-like protein 4, full length isoform A (SALL4, Homo sapiens, UniProt Q9UJQ4, residues 1-1053)
Chain of UniProt Q9UJQ4 (whole entry, looked up): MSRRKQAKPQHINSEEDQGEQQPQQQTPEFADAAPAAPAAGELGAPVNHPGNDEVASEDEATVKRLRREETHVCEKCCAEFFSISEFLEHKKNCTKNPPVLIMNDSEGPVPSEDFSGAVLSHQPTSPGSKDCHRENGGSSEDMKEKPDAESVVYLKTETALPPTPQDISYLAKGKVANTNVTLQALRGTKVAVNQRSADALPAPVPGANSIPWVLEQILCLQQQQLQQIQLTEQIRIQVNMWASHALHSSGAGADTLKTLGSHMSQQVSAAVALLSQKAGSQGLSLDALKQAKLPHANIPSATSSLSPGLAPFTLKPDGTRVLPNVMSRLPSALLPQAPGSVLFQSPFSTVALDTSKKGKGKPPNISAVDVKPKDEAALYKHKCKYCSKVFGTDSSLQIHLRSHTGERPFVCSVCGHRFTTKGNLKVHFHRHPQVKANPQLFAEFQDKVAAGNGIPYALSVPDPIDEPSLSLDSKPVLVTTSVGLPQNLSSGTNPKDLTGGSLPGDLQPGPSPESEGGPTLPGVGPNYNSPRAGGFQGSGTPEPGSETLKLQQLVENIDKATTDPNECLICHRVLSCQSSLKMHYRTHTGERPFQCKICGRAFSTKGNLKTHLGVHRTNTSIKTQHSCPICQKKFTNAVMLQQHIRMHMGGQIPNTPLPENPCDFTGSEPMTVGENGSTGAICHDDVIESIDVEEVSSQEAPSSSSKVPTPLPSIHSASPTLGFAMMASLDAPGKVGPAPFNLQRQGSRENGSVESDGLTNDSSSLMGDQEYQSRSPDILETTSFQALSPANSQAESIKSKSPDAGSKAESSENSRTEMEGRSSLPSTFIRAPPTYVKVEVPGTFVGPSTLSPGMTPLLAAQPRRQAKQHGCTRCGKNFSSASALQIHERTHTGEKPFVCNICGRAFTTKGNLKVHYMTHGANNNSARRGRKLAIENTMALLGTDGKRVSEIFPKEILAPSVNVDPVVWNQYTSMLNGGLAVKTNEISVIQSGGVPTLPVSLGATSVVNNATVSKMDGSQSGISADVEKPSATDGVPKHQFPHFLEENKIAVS
Technique: universal PBM
Molecule type: double-stranded DNA, one strand shown
Sample: in vitro
Tested at: 600 nM
Setting: 8-mer, flanks averaged, mean of replicates
Direction: higher = stronger binding
Sequence	E-score
AACTCATT	0.0475
CGGCCCTA	-0.226
CGCCTACC	-0.271
CGGTCTTA	-0.12
TAAGAATA	0.259
CATGCATG	0.108
CGAGAGAG	-0.095
CACATGTC	-0.0984
AGTATGAC	0.209
CTGTAGGC	-0.0611
ACGAATGG	0.0484
CAATTTAC	0.168
AAGAAATA	0.315
AGCCGGCG	-0.278
AATGTACC	0.166
GAATCCTA	0.158
AATGAAAC	0.225
GGATTGGA	-0.0163
AACCGAGT	-0.104
CAGCAAGG	-0.183
AACCTTCA	0.127
AGAGTCTC	-0.192
ACCGCCCC	-0.297
GATGTGGA	0.152
ACTCCTAG	-0.158

Study 4
Target: CEBPA, bZIP domain (human)
Technique: DHFR protein complementation
Sample: yeast
Setting: single substitutions, most at no-binding floor
Reference: wild-type JUN-FOS pair
Direction: higher = stronger binding
Parent: JUN, bZIP domain (human); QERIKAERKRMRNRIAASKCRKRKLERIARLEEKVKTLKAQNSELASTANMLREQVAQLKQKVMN; partner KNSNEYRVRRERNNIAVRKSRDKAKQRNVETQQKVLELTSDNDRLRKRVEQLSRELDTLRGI
Variant	binding fitness
R30M	-1.52 natural log
L31W	-1.46 natural log
A46D	-1.37 natural log
E54Y	-1.38 natural log
A46T	-1.38 natural log
T48V	-1.41 natural log
R30H	-1.48 natural log
L31Q	-1.42 natural log
V56Q	-1.54 natural log
R53N	-1.48 natural log
Q41K	-1.44 natural log
L31S	-1.32 natural log
E32D	-1.43 natural log
Q41L	-1.47 natural log
T37S	-1.42 natural log

Study 5
Target: ABI1, truncated, D143A, DHFR fusion (Arabidopsis thaliana)
Technique: DHFR PCA, deep sequencing
Sample: yeast
Setting: methotrexate growth selection, single substitutions
Added: (+)-ABA 58 µM
Reference: wild-type fitted maximum
Direction: higher = stronger binding
Parent: PYL1, truncated, DHFR fusion (Arabidopsis thaliana); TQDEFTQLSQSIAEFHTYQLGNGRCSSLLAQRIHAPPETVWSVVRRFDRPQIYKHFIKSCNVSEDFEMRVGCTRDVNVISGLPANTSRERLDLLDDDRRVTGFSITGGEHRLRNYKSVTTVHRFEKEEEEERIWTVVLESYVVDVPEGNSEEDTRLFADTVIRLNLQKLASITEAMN
Variant	relative binding score [%]
E152W	74
F5Q	93.1
E67H	79.1
R111S	40
E174H	61.7
I33C	68
A13C	74.8
T6Y	79.4
T120N	-0.122
T86M	73
T119D	-1.97
L29C	72.9
D95S	54.5
T160I	56.9
G23Q	76.5
G71H	38
L164M	87.5

Study 6
Target: CCNA1, cyclin fold, Cln2 fusion (human)
Technique: yeast growth competition, sequencing
Sample: yeast
Setting: weak parent motif
Reference: not given
Direction: higher = stronger binding
Parent: MICAL3 docking peptide (human); LQLRRQLSFSEDS
Variant	normalised enrichment score
LQLRRCLSFSEDS [Q6C]	0.505
LYLRRQLSFSEDS [Q2Y]	0.224
LQLRRQLSTSEDS [F9T]	0.366
LQLRRQLKFSEDS [S8K]	0.607
LQLRRQLSFSFDS [E11F]	0.106
LQLRRVLSFSEDS [Q6V]	0.301
LALRRQLSFSEDS [Q2A]	0.0279
LQLRRQLSVSEDS [F9V]	0.162
LQLRRQLSFSHDS [E11H]	0.184
LQLRRQLSRSEDS [F9R]	0.244
LSLRRQLSFSEDS [Q2S]	0.538
LQRRRQLSFSEDS [L3R]	0.561
LQLRRQLSFWEDS [S10W]	0.203
LQLRRQLSYSEDS [F9Y]	0.323
LQLRRQLSFIEDS [S10I]	0.0782
LQLRRGLSFSEDS [Q6G]	0.0914

Single results of other studies
Substance	target	assay	test system	setting	how to read	measurement	result
PhoQ, residues 284 288 289 292 302 303 SSLVEF	PhoP, residues 12 14 15 18 19 NYFTV (Escherichia coli, UniProt P23836)	Sort-seq, measured: YFP reporter	E. coli	PhoQ-PhoP variant library, added: 10 µM Mg2+	reference: high Mg2+ state, higher = stronger signaling	fold induction	1.8

Repeated from above (study 3):
Sequence	E-score
AATGAAAC	0.225
GATGTGGA	0.152
AACCTTCA	0.127
CAGCAAGG	-0.183
CACATGTC	-0.0984
AACTCATT	0.0475
CGGTCTTA	-0.12
CGGCCCTA	-0.226
CATGCATG	0.108
CTGTAGGC	-0.0611
GAATCCTA	0.158
GGATTGGA	-0.0163
AACCGAGT	-0.104
ACGAATGG	0.0484
AGTATGAC	0.209
AAGAAATA	0.315
AGAGTCTC	-0.192
